Measurements gathered from unrelated publications.
Each numbered part is a random draw from the data of one study; scales do not carry over between parts.

Study 1 — method: RNA Bind-n-Seq; form: RNA; matrix: in vitro; tested at: 200 nM; notes: whole 134-nt RNA, ends assumed; together with: 150 mM KCl; relative to: input library; direction: higher = stronger binding; quantity: log2 enrichment
Target: Fragile X messenger ribonucleoprotein 1, C-terminal low-complexity region (Fmr1, Mus musculus, UniProt P35922)
Strand = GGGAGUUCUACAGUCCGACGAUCUGCAGCUCUCCGGCUGGGAUCCUGGUUGACGCCAUGUCCCAGAAGCACCUUCAGAUCAACCAGACAUUUGAGGAGCUGCGACUGGUCACGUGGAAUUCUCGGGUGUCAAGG; value = -1.82
Strand = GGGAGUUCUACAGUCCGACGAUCGUCCUGUGCUACACAUCGUAUGUACCGAAUCGGUUUUUUGGGGUUUUUUGGUUUUUUGGAAAGUAUUAUGUUACGCCGUUCGGAUCUGCAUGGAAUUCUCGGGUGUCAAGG; value = -0.517
Strand = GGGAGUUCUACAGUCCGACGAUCUCCUGUGCUACACAUCGUAUGUACCGAAUCGGGUUUGGGAAAAAAAGGGAAAAAAAGGGAAAGUAUUAUGUUACGCCGUUCGGAUCUGCAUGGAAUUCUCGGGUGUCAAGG; value = 0.0351
Strand = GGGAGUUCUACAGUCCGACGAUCCUGUGCUACACAUCGUAUGUACCGAAUCGGGGUUUUUUUGGGUUUUUUUGGUUUUUUUGGGAAAGUAUUAUGUUACGCCGUUCGGAUCUGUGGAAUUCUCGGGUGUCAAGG; value = -0.796
Strand = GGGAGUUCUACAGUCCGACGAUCUUCCCUGAAGAUGAGAUCCCAGAGAAGGCCUGCAGGCGCCUGCUUGAAGGGAGGCGGCAGAAGAAGACGAAGAAGCAGAAGCGUCUGCUCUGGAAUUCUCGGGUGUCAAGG; value = 0.00274
Strand = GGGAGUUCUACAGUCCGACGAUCUGGCCCUGGUGGCAUGCGGGGAGGAAGAGGUGGCCUCAUGGAUCGUGGUGGUCCCGGCGGAAUGUUCAGAGGUGGCCGUGGUGGAGACAGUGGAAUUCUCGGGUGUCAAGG; value = -0.121
Strand = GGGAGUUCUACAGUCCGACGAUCUGGGAGGUGGAUUUUGUUUAUUUUUUUAGCUCAUUUCCAGGGGUGGGAAUUUUUUUUUAAUAUGUGUCAUGAAUAAAGUUGUUUUAGAAAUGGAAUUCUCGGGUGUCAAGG; value = 0.304
Strand = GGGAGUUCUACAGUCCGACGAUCGUCCUGUGCUACACAUCGUAUGUACCGAAUCGGGUUUUUGGGUUUUUUUGGGAAAGGGAAAGUAUUAUGUUACGCCGUUCGGAUCUGCACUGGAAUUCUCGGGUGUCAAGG; value = 0.00724
Strand = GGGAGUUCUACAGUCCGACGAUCCAAGUCCUGUGCUACACAUCGUAUGUACCGAAUCGGGAAAAAGGGUGGGUUUGGGAAAGUAUUAUGUUACGCCGUUCGGAUCUGCACUUCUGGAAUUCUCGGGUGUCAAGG; value = 1.03
Strand = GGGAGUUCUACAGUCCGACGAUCGUCCUGUGCUACACAUCGUAUGUACCGAAUCAAACCCCCCCAAACCCAAAUUUUUAAAAAAGUAUUAUGUUACGCCGUUCGGAUCUGCACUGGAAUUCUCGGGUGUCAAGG; value = -0.0528
Strand = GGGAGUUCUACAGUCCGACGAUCUAACUUUAGAGGAGGAUCUGAUGGAUAUGGCAGUGGACGUGGAUUUGCGGAUGGCUAUAAUGGGUAUGGAGGAGGACCUGGAGGUGGCAAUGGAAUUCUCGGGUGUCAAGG; value = 0.335
Strand = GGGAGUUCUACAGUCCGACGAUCCUCAAGUCCUGUGCUACACAUCGUAUGUACCGAAUCGGAAAGGUUUGGUUUGGAAAGUAUUAUGUUACGCCGUUCGGAUCUGCACUUCCAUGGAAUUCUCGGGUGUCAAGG; value = -0.436
Strand = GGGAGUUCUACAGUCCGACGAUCUGUGCUACACAUCGUAUGUACCGAAUCGGGGCCCCCCCGGGGCCCCCCCGGGGCCCCCCCGGAAAGUAUUAUGUUACGCCGUUCGGAUCUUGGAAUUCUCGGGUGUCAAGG; value = -0.762
Strand = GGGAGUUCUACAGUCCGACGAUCGUCCUGUGCUACACAUCGUAUGUACCGAAUCGGGGAGGGGAAAAAGGGGAAAAAGGGGAAAGUAUUAUGUUACGCCGUUCGGAUCUGCACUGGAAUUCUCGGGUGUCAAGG; value = 0.223

Study 2 — method: EMSA with sequencing; form: double-stranded DNA, one strand shown; matrix: in vitro; tested at: 10 and 20 nM; relative to: negative control set to 0; direction: higher = stronger binding; quantity: normalised bound fraction
Target: Hepatocyte nuclear factor 3-alpha (Foxa1, Mus musculus, UniProt P35582, residues 1-468, full length assumed)
Notes: whole designed probe, mean of two concentrations, ends assumed
Target sequence (chain): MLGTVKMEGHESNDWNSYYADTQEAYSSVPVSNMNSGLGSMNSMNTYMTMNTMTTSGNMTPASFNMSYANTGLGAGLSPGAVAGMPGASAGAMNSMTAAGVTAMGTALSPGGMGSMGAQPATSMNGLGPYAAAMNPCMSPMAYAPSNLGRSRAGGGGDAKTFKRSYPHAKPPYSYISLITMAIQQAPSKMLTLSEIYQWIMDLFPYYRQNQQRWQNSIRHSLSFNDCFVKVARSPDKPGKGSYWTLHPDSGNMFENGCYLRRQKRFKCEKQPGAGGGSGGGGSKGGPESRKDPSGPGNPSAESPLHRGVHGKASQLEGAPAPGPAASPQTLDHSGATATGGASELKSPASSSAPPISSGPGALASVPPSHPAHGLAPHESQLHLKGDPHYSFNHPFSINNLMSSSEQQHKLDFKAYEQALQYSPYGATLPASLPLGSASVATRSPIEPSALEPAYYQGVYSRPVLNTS
Strand = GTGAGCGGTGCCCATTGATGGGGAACTTACCACCTCCACCTCTGCTACTTTCTGCTCTAGAAACTACTTTAATGAAAAGAGAAAAAGCTAGTTGACTAGCATGTTGATTTTATGCCCAATGCAAATACAGACCAACTGACTCATCCTGAAAATATTTAGCAGGGAGAAAAAAAAAAAGAAGAAAATTTTTTTTAGTGAGTAGCCCACATTATGATACTTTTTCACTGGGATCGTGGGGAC; value = 0.315 ratio
Strand = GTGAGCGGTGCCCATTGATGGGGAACAATGGAATAATTCCTTTACAGGATCAGAACACGTAGGAAGCCAAATTAATAATTGAAAGCTAGATTGTTTAGCAAAGAACCAGAGCATAAGAAAGTAATTTACCTTAAGGGATATTTCAAGGCCATGAGTACAGCCTAACAGAGTGATGGAAGCAGGGACTCTTGCAGTTAAGCCACTGGAATTTGAATTCCATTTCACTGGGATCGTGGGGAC; value = -0.0288 ratio
Strand = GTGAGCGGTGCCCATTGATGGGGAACTTCACTTTTTTTTCTGCTGTCTTGAACTCCTTTTCCTCACTCTAAATATTTTTTACAGCATTTACTATCTTCTAACATATTATAAAATTTCTTGTTTACTTATATTTATTCTCAATATCCTCCTATTAAGTCAGAGTGTCTGCCCTTGGTATGCATTAATATGTATTTAAGGAATTGATAAATTAGTTCTGCTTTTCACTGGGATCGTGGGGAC; value = 0.404 ratio
Strand = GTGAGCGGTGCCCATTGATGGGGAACCCTGTGGGATAACATCAAGTGCTCTAACGTAAGTATCACTGCAGTCCTGGGAAGGGGCAGGGCGGGACTATTTGAAAACATGATGACTAAATGTAATTTCTCAAGGTATGATGACACTGTATGCAGAGTACTCAACACAAAGGGTTCAGTGTTAAATGTAGACTTACACGGGTATATGGTACCCACAACTCAATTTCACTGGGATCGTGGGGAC; value = 0.0202 ratio
Strand = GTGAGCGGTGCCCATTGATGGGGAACTTTCCAGCCCTTAGTTTCTGGCATTTAACCTGACTCTGGTCCCTGAATGGCATGGGAGTGCTTTCAACCACTGACTCATTCATTCATGCCACTTGTTTGCTTTTCTGTCACATTCTGATCTACAGAGATCTTTATTTGCTTTGTGTTTCCAATGGAGAAAGAGCTTGGGAAGGGAGGATCCTAATTGTCTAAATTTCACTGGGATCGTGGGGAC; value = 0.489 ratio
Strand = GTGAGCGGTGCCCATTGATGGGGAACAGATCTAGACTAATTCATCCCCTTCATTTTAAGTTTAGGTTTTAAATAGCTTTGTTTGGCTTGATCCTAGAGCTACACATTTACTTTTAACTTGTTTACTTTGTACCCTATCATTTAGGATATGCTATGTACTATTGTACTCTATTTGATATTTCAAACATTCTCTCATTTAGTGAAGAAGCTCCCAACCGGATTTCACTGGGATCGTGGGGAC; value = 0.483 ratio
Strand = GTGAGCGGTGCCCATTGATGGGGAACATCTTCCCCCTCTTCCTTGCCCCACCAGCTCACCTACGGGGGTTATTTGCAGATAGGAAAATAAATAAAGCCGGCATTCGTTAACCCTCTTCACGCGCATACTGCTGTTTGCTCTGGATCTAACATGGTCCTTTGGCGAGGCGTGGCTCCGGGAGAGCAAAGCACCGTGTCAGGGCCATGATCCGGGCTCGCCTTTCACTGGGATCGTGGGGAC; value = 0.34 ratio
Strand = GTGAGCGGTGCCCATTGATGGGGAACGCCTTGTTCAATTCTAGAATTTAATCTAGGATGACCCATTGTTTCTATTTGTCACATCTGTTTAGACTTCTCTGGTCTATGACAATTTCTCAGTGTTTGCTTATTTTTCATGACTTCATAGTTTTGAGGAGTACTCATCAGGTATTTTGTGAAATGTCCCTCAATTTGTATTTGTCTTATGTTTTCTCATAATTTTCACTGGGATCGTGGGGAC; value = 0.282 ratio

Study 3 — method: protein-binding microarray; form: double-stranded DNA, one strand shown; matrix: in vitro; tested at: 940 nM top; notes: 60-bp whole probe; together with: salmon DNA 0.4 mg/ml; relative to: random background probes; direction: higher = stronger binding; quantity: fitted relative affinity; constant ends, left off below: GCCTAGCAC … GTCTTGATTCGCTTGACGCTGCTG
Target: Interferon regulatory factor 5, full length, phosphomimetic (IRF5, Homo sapiens, UniProt Q13568-2, residues 1-514, S451D/S453D/S456D/S462D)
Strand = ATGAGTCTCAAAATTAGAGAGTGCTAG; value = 0.512 z-score
Strand = AGCAAATTATATCTTATATCGTGCTAG; value = 0.245 z-score
Strand = ATAGGTCTCGGTATCGGTTAGTGCTAG; value = 7.1 z-score
Strand = TTAGGTTACGGGTATCGGTTAGTGCTA; value = 2.89 z-score
Strand = AGAGATGTGGGACTCACCTAGTGCTAG; value = -0.491 z-score
Strand = GACGGATTCGGTTCCGGGACGTGCTAG; value = 1.17 z-score
Strand = GACGATATCGGGTATCCAGACGTGCTA; value = 0.127 z-score
Strand = TCACATATGTTTTTCATACTGTGCTAG; value = 0.439 z-score
Strand = CCCATGCTGGATGAAGTACAGTGCTAG; value = -0.393 z-score
Strand = GACGGTATCGACAGTGGGGACGTGCTA; value = 3.88 z-score
Strand = TTAGATTCCAGTTTCGAGTAGTGCTAG; value = 4.08 z-score
Strand = GGGACTTTGAATTAGAAAGAGTGCTAG; value = -0.47 z-score
Strand = TAAGGTTCCGGTTTCGGTTAGTGCTAG; value = 9.5 z-score
Strand = TTAGATATCGGGACCGGATTAGTGCTA; value = 0.318 z-score
Strand = GACGATTTCGGGTTTCGCGACGTGCTA; value = 1.09 z-score
Strand = TTAGGTTTCGACAATGGGTTAGTGCTA; value = 8.29 z-score
Strand = CTCCTGCAGCTGCCCTCCTGGTGCTAG; value = -0.15 z-score
Strand = TCCTCTTTCACTGCTCCATACGTGCTA; value = 2.31 z-score
Strand = GGTGATTTCAGTTTTCTTTTGTGCTAG; value = 1.07 z-score
Strand = TTAGTTCTGAGTCTTCCCTTGTGCTAG; value = 0.224 z-score

Study 4 — method: protein binding microarray; form: double-stranded DNA, one strand shown; matrix: in vitro; tested at: not given; relative to: not given; direction: higher = stronger binding; quantity: E-score
Target: Histone acetyltransferase KAT6A, winged helix 2, GST fusion (KAT6A, Homo sapiens, UniProt Q92794, residues 85-181)
Notes: 8-mer, flanks averaged, mean of 2 arrays, mostly near background
Residues (chain): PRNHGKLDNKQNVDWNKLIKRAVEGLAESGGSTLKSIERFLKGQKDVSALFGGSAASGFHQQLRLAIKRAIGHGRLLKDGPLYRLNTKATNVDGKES
Strand = AGCGATTG; value = -0.129
Strand = AGCAGGTC; value = -0.0107
Strand = CATCAATG; value = -0.162
Strand = AAGGCTAC; value = 0.00752
Strand = CCATACGG; value = -0.0339
Strand = TGAACAAA; value = -0.00212
Strand = ACTCAGGA; value = -0.0696
Strand = CCGCGGAG; value = 0.22
Strand = CCGGCCGG; value = 0.271
Strand = CATCAACG; value = 0.0893
Strand = TGTCGACA; value = -0.17
Strand = AACACAAG; value = -0.163
Strand = TACGTAAA; value = -0.254
Strand = TAGTATAA; value = 0.195
Strand = GGCCACCA; value = 0.0649
Strand = CCTATTAA; value = -0.0555

Some of these lines once more (study 3):
Strand = CCCATGCTGGATGAAGTACAGTGCTAG; value = -0.393 z-score
Strand = TCCTCTTTCACTGCTCCATACGTGCTA; value = 2.31 z-score
Strand = TTAGATATCGGGACCGGATTAGTGCTA; value = 0.318 z-score
Strand = GGTGATTTCAGTTTTCTTTTGTGCTAG; value = 1.07 z-score
Strand = TCACATATGTTTTTCATACTGTGCTAG; value = 0.439 z-score
Strand = TTAGATTCCAGTTTCGAGTAGTGCTAG; value = 4.08 z-score
Strand = CTCCTGCAGCTGCCCTCCTGGTGCTAG; value = -0.15 z-score
Strand = GACGATTTCGGGTTTCGCGACGTGCTA; value = 1.09 z-score
Strand = ATAGGTCTCGGTATCGGTTAGTGCTAG; value = 7.1 z-score
